Published values pooled from the literature.
Parts stem from different laboratories: compare values within a part only. Positions count from the first letter of the parent shown.

Block 1
Target: Histone acetyltransferase KAT6A, winged helix 2, GST fusion (KAT6A, Homo sapiens, UniProt Q92794, residues 85-181)
Method: protein binding microarray
Molecule type: double-stranded DNA, one strand shown
Matrix: in vitro
Tested at: not given
Notes: 8-mer, flanks averaged, mean of 2 arrays, mostly near background
Reference: not given
Direction: higher = stronger binding
Target sequence (chain): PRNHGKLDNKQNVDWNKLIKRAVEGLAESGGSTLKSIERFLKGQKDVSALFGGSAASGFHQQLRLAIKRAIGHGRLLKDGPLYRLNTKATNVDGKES
Sequence	E-score
CCTTTAAA	-0.106
ACTTGCCT	-0.126
AGGCGTCC	0.0604
ACGGATTC	-0.0535
ATTAAAAG	0.0419
ACCGGACG	0.181
AACTCTGC	-0.0613
AAGACCTG	0.0114
GGTCGCGA	0.255
AAATACGC	0.0122
GAGCCCAC	0.00806
CACACGGG	0.00062
CGCGAAAG	0.0343
AAGTCTCC	-0.271
AGACAGGC	-0.0828
GGCTCTGA	0.1
TCCCGGGA	-0.0315

Block 2
Target: RNA binding protein fox-1 homolog 2, RRM domain, GST-SBP tag (RBFOX2, Homo sapiens, UniProt O43251-10, residues 100-194)
Method: RNA Bind-n-Seq
Molecule type: RNA
Matrix: in vitro
Tested at: 365 nM
Notes: natural RNA segment, single round, ends assumed
Reference: no-protein control
Direction: higher = stronger binding
Residues (chain): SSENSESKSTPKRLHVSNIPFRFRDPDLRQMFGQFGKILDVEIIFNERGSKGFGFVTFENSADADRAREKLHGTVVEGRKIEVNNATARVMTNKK
Sequence	RBNS enrichment (R)
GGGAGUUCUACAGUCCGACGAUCUGGGGCGGCACGUUUUACUCUUUAUCUCGCUUUCGGAGGUGCUUUCGCAGGAGCAUUAACCUCCUGGAGACGGAGCUGGGAGGACUCGGUGCAUCCCUGUGUUGAUAGCUUGGAAUUCUCGGGUGCCAA	0.772
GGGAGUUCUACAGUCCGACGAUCAUUAGACCCCAGGAUGGAGCGACCAGCAUGUCAUCCAUGUGGAAUCUUGGUGGCUUUGAGGACAUUCUGGAAAAUGCCACUGACCAGUGUGAACAAAAGGGAUGUGUUAUUGGAAUUCUCGGGUGCCAA	0.957
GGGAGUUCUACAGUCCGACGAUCGGCUCAGGCCUUGGCCCUCUAGGCAGGGAAGCUGGACUGACCAUAUCUGCUGGGCAUCUGAUCUGCCUGCCACGAGGUCCAGACUCUUCUGCAUCCACCUAUGGCAUCUGUGGAAUUCUCGGGUGCCAA	0.785
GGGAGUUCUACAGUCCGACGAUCUACACCAGUGACUGUCGGGCAGGGCAAGCGCCCUGGUCACAGACCCCAGAAACAUGACCUCCCACUGCAGGGUGUUGAAGGCCGAGCCCUCCCUCCGCUGAGCAUGUGAUUGGAAUUCUCGGGUGCCAA	1.61
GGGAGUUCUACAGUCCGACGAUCUGGAGAAGUAUUUAUUUUCAAAUAUCAAAUUGAAGAAAAACUCAAUCCUCCCAUGAAAAUCAGUUCGCCUGGCCUCCAAGUCGUGAGGAAAUGGGUAUGCAAGGCUGAGAUGGAAUUCUCGGGUGCCAA	0.34
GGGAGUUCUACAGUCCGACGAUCUCUCCUAGCUCUGGAGGUGCUGCUCUAGGGCAGGGAAUUAUGGGAGAAGUGGGGGCAGCCCAGGCGGUUUCACGCCCCACACUUUGUACAGACCGAGAGGCCAGUUGAUCUGGAAUUCUCGGGUGCCAA	0.323
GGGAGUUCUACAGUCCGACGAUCUGUAUGCAUUCACCUUGCCUCUUGCACAAAUGUCAAAAAAAAGAUGGUAAUAUCUCAAAGAAAUGAACUUGUAGAUUACCAAGCAGUUUGCUAAAAAUUCAAUCUUUGACUGGAAUUCUCGGGUGCCAA	0.443
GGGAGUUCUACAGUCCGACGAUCGGCUGGCCCUCAUUCGGGGUCGGGAACCAAGGGUGUGUCUGCUCUUUCCCUCCCCAUCCUCUGGCAGAAAUCAGCUAGACGCUAUACCGUGGACUCUCCCUGGUCCACCAUGGAAUUCUCGGGUGCCAA	0.355
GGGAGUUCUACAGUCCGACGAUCUACUACUAAAAGCCAGAAAGAACAGAACAGUGGCCUCAGGAGAUCUGAGUUUGAAUCCUUGCUCUCUAGGAUGCAGGUGGCUUGAAGCAGAAUGCCACACCUGCAAGUUGUGGAAUUCUCGGGUGCCAA	3.36
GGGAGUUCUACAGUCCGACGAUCCUCGCAAAAUGAUGUGAAAGGACCAGUUUCUUGAAGUCCAGUGUUUCCACGGCUGGAUACCUGUGUGUCUCCAUAAAAGUCCUGUCACCAAGGACGUUAAAGGCAUUUUAUGGAAUUCUCGGGUGCCAA	0.332
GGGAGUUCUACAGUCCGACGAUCGCAAAAAGCAAGCUUUAGCUUGUCUUAUAGGAUGCUUAGUUUGCCACUACACUUCAGACCAAUGGGACAGUCAUAGAUGGUGUGACAGUGUUUAAACGCAACAAAAGGCUUGGAAUUCUCGGGUGCCAA	0.473
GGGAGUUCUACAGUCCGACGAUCCAUUUCUAACCUGUGCCACCUCUUGUUUCGUUCAUGCUGAGCCUGUAGUUUCAGUCAUGGACUUUUGUACUGUUGAGUGCAAAGGCAUGUUGGGAAAGGUGUUGGGGAGGUGGAAUUCUCGGGUGCCAA	0.497

Block 3
Target: ABI1, truncated, D143A, DHFR fusion (Arabidopsis thaliana)
Method: DHFR PCA, deep sequencing
Matrix: yeast
Notes: methotrexate growth selection, single substitutions
With: (+)-ABA 710 µM
Reference: wild-type fitted maximum
Direction: higher = stronger binding
Starting sequence: PYL1, truncated, DHFR fusion (Arabidopsis thaliana); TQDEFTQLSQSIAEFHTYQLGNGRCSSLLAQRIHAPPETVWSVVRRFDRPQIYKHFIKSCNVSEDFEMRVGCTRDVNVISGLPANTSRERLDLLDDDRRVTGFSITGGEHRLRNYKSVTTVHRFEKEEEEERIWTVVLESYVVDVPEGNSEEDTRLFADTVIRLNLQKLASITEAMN; partner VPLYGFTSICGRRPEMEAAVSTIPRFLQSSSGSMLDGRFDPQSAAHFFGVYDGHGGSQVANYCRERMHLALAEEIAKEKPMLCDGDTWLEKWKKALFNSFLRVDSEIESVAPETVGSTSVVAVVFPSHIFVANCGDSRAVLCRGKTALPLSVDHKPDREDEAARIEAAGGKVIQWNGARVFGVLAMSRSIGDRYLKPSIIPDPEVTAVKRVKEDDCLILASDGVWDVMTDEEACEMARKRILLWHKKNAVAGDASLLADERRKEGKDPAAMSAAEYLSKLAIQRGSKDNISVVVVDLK
Change	relative binding score [%]
F157G	-3.63
E67N	101
P36L	92.5
H34T	96.2
K126V	113
R132N	111
I133Y	110
D92T	94.7
R88E	101
Y18K	99.1
S104A	82.5
I105P	-4.39
F15D	70.7
K54F	-1.93
R49G	84.8
D92W	78.9
W134V	110
S27D	98
G81E	48.2
R45I	30.6
G81V	53.7

Block 4
Target: CCNB3, cyclin fold, Cln2 fusion (human)
Method: yeast growth competition, sequencing
Matrix: yeast
Notes: weak parent motif
Reference: not given
Direction: higher = stronger binding
Starting sequence: SLBP docking peptide (human); ARYKRKLLINDFG; partner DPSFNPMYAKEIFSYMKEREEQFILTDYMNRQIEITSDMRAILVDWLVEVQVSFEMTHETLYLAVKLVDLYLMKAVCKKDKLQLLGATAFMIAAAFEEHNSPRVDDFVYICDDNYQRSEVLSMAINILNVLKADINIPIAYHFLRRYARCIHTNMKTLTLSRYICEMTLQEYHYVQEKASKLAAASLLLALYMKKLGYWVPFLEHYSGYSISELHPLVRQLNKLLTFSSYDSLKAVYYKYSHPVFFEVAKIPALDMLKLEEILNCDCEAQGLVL
Change	normalised enrichment score
ARYKRKELINDFG [L7E]	0.0693
CRYKRKLLINDFG [A1C]	-0.206
ARYKRKLLINDSG [F12S]	-0.161
ARYKHKLLINDFG [R5H]	0.491
ARYKRKFLINDFG [L7F]	0.444
ARIKRKLLINDFG [Y3I]	0.252
ARYKRKLLINHFG [D11H]	-0.0929
HRYKRKLLINDFG [A1H]	-0.107
ARYKVKLLINDFG [R5V]	0.488
ARWKRKLLINDFG [Y3W]	0.0889
ARYKRLLLINDFG [K6L]	0.514
ARYKRKLLINDFT [G13T]	0.127
ARYKRKLLINEFG [D11E]	0.211
ARYKRKLLMNDFG [I9M]	0.376
AEYKRKLLINDFG [R2E]	0.341
ARYKMKLLINDFG [R5M]	0.258
ARYKRKLLINVFG [D11V]	0.241
ARYSRKLLINDFG [K4S]	0.105
ARYDRKLLINDFG [K4D]	0.0162

Block 5
Target: MAFK, bZIP domain (human)
Method: DHFR protein complementation
Matrix: yeast
Notes: single substitutions, most at no-binding floor
Reference: wild-type JUN-FOS pair
Direction: higher = stronger binding
Starting sequence: JUN, bZIP domain (human); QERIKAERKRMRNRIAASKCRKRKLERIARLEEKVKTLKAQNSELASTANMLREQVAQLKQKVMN; partner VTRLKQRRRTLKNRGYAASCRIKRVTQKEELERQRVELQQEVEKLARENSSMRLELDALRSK
Change	binding fitness [natural log]
E44W	-1.52
E32M	-1.52
I28E	-1.42
T37I	-1.4
A46F	-1.55
I28C	-1.45
R30L	-1.39
T48F	-1.46
E32Y	-1.49
S47A	-1.44
K36D	-1.55
E54C	-1.56
K39W	-1.51
E54Y	-1.3
I28D	-1.61
E33I	-1.43
A49I	-1.44
S43C	-1.5
Q55S	-1.53

Block 6
Target: RING finger protein unkempt homolog, zinc fingers 1-6, SBP tag (UNK, Homo sapiens, UniProt Q9C0B0, residues 30-357)
Sequence of UniProt Q9C0B0 (30-357, looked up): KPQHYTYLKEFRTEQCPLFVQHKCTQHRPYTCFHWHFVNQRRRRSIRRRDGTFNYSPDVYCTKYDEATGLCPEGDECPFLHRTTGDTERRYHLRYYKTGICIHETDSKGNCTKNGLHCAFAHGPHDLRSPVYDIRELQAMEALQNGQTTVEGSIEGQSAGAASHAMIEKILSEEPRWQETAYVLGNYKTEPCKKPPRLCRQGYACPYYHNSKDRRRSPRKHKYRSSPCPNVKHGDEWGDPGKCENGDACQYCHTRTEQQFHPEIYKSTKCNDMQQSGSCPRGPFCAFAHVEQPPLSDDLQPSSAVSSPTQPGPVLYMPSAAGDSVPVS
Method: RNA Bind-n-Seq
Molecule type: RNA
Matrix: in vitro
Tested at: 100 nM
Notes: RNA with constant flanks, vertebrate orthologous sites, ends assumed
Reference: input RNA pool
Direction: higher = stronger binding
Sequence	bound/input enrichment [ratio]
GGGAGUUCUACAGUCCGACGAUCAAUAGUUUUAAGCUUGUUUGCACAGUUUUUUUUUUCCAUUGGAGAUGGAAUUCAUUGCCUUAGGUCUUUUUAAUAGUGUAUUGUUAUUGUUGGGCUGGCUCUAUGCUUGAAAACCAGUUUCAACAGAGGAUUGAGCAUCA	2.26
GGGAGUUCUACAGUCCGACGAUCUCACUCUGAUAGGAGUGGGUUGUUAUUCGUUUUUUCUUUUCUUUUUUUUUACAUUUUGUAUAGAAACAAAUUCAUUUAAACAAACUUAUUAUUAUUAUUUUUUACAAAAUAUAUAUAUAGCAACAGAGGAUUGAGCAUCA	0.538
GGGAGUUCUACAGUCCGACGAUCCCCCGAUUUUAGAUGUGAUAUUUAGGCUUUCAUUCCAGUUUGUUUUGUUUUUUUUUUGUUUAGAUACCAAUCUUUUAAAUUCUUGCAUUUUAGUAAGAAAGCUAUCUUUUUAUGGAUGUUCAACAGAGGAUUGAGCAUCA	1.83
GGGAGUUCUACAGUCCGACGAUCUCAGUCCCCUGGGCUGGGACAGAUUUUUUUUAACGUCUUGAAACUUAAAUUCUGUGCUUGCAGGAGACUGUAACGUUUUUGUCUUUUUUUUUUUAAACAAACAACCUCCACCUCCAGUAGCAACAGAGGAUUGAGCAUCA	0.456
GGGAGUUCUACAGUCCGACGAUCGUUCAAACCUGUGGUACCAUGGCCCCAUGUUGAAGGAGUAGAAGUGGACUUAGAGUCUAUUAGAAGAAAAAACAAGGCGAAAAAUGAACAAGAGCGCCAUGCUGGAGGAGAUAACCAGAACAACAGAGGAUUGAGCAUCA	0.628
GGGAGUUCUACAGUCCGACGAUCGUGACUUUGGACGUCCGCUCCCCCUCACUGUGGAGGCUGUUUAGUCUCGGGCCUUGCAGGUUUAUUUUCCUCUCCUGGACUCGAGGCUUCUGUUUCACCAUGUUCCGCCAGAUCGUUGGUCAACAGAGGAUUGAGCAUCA	0.28
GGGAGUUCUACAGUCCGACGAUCCAUGAUCUUGUUACUGUGAUAUUUUAAAUAUCCACAGUACUCACUUUUUCCAAAUGAUCCUAAUAAUUGCCUAGAAAUAUCUUUCUCUUACCUGUUAUUUAUCAAUUUUUCCCAGUAUUUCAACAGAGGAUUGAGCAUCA	0.793
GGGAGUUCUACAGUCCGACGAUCCCUCUCACUUAACUGUGUCCAAAAUUGCUGUGAGGGUUGGAAACAUUCAUUAGUUUCUUGUAGAACUACACUGGCAGGUGCUCAAUUGCCAUCAUAGCAAGCAAGAUCAAAUACCAUCACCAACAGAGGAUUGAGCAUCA	0.992
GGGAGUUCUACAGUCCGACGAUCUAUUUAAAGUGUAAGUAGUUAUAUUUAAUGACCUCAUCCUGAGUUUCUUGUUCAUUAAAGUAGCUUUCAUUUCUACUAAUAAGAAUAAACAGAAGGUUUGUGUGAGCAGACACUCAGAACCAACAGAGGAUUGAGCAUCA	0.579
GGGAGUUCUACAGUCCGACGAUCGUCCCUCAGUGACAGCACGCCGUCCGUAGCAGAUUCCCACUCUAGCCACUUUUCUGAAUUUAGUUGCUCUGACCUAGAAAGCAUGAAAACUUCUUGUAGUCAUGGUUCCACUGAUUAUCACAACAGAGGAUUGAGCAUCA	1.83
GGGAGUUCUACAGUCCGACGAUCGACCUCCUGAACUUCUAGCUUUCAAGCUGUGGCUGUUUUAGAUACUGAUUUUAUUUUCUUUACAAUUUUCCCCUGUUUCCUGCCUUCUCUUCCCUGUUCCCAAGGUUUGACUCAAUGGAUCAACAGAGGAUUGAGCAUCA	2.69

Repeated from above (block 5):
Change	binding fitness [natural log]
K36D	-1.55
I28C	-1.45
T37I	-1.4
I28D	-1.61
I28E	-1.42
E54Y	-1.3
A46F	-1.55
S43C	-1.5
E33I	-1.43
E32M	-1.52
